Published values collected from several papers.
Compare with care: the assays were run in different laboratories. Several values in a cell are separate wells, animals, samples, runs or records.

SMILES | target | assay | system | setting | scale | quantity | result
C=CC(=O)N1[C@@H](c2ccc3c(c2)OCO3)c2[nH]c3ccccc3c2C[C@H]1C(=O)NC1CC1 | FAM213A Cys85 human | cysteine IA-DTB labelling, covalent inhibitor, MS-ABPP | 22Rv1 | 20 µM, 3 h | – | inhibition | 78% and 76%
C[n+]1ccc(/C=N/NC(=O)c2cccc(C(=O)N/N=C/c3cc[n+](C)c4ccccc34)n2)c2ccccc21 | hairpin duplex DNA | UV melting | – | 1 molar equivalents, DNA 3 µM | – | ΔTm | 0.5 °C
CSCC[C@H](NC(=O)[C@H](CCC(N)=O)NC(=O)[C@H](CCCCN)NC(=O)[C@H](CCCNC(=N)N)NC(=O)[C@H](Cc1ccc(O)cc1)NC(=O)[C@H](CCCNC(=N)N)NC(=O)[C@H](CO)NC(=O)[C@H](Cc1ccc(O)cc1)NC(=O)[C@H](CO)NC(=O)[C@H](CC(=O)O)NC(=O)[C@@H](NC(=O)[C@@H](N)Cc1ccccc1)[C@@H](C)O)C(=O)N[C@@H](C)C(=O)N[C@H](C(=O)N[C@@H](CCCCN)C(=O)N[C@@H](CCCCN)C(=O)N[C@@H](Cc1ccc(O)cc1)C(=O)N[C@@H](CC(C)C)C(=O)N[C@@H](C)C(=O)N[C@@H](C)C(=O)N[C@H](C(=O)N[C@@H](CC(C)C)C(=O)NCC(=O)N[C@@H](CCCCN)C(=O)N[C@@H](CCCNC(=N)N)C(=O)N[C@@H](Cc1ccc(O)cc1)C(=O)N[C@@H](CCCCN)C(=O)N[C@@H](CCC(N)=O)C(=O)N[C@@H](CCCNC(=N)N)C(=O)N[C@H](C(=O)N[C@@H](CCCCN)C(=O)N[C@@H](CC(N)=O)C(=O)N[C@@H](CCCCn1cc(C[C@H](NC(=O)CNC(=O)[C@H](CO)NC(=O)[C@H](CCCNC(=N)N)NC(=O)[C@H](CO)NC(=O)[C@H](CC(C)C)NC(=O)[C@H](CC(C)C)NC(=O)CNC(=O)[C@H](C)NC(=O)[C@H](CC(C)C)NC(=O)[C@H](CCCNC(=N)N)NC(=O)[C@H](Cc2c[nH]cn2)NC(=O)[C@@H](NC(=O)[C@@H](N)C(C)C)[C@@H](C)O)C(=O)N[C@H](C(=O)N[C@H](C(=O)N[C@@H](CCCCN)C(=O)N[C@@H](CC(N)=O)C(=O)N[C@@H](CC(N)=O)C(=O)N[C@@H](Cc2ccccc2)C(=O)N[C@H](C(=O)N2CCC[C@H]2C(=O)N[C@H](C(=O)N[C@@H](CC(N)=O)C(=O)N[C@H](C(=O)NCC(=O)N[C@@H](CO)C(=O)N[C@@H](CCCCN)C(=O)N[C@@H](C)C(=O)N[C@@H](Cc2ccccc2)C(N)=O)C(C)C)[C@@H](C)O)C(C)C)C(C)C)C(C)C)nn1)C(N)=O)C(C)C)C(C)C)C(C)C | human VPAC1 receptor | cAMP accumulation, antagonist | transfected COS-7 cells | – | – | pA2 | 5.53
O=C(C1CCc2ccccc2CC1)N1Cc2cccnc2Nc2ccc(N3CCOCC3)cc21 | IDH1 R132H human | 2-HG production, RapidFire mass spectrometry | MOG-G-UVW overexpressing IDH1 R132H | – | – | IC50 | 66 nM
C=CC(=O)Nc1cccc(Cn2ncc3cnc(Nc4cnn(CCOC)c4)nc32)c1 | PIK3CG human | binding, KINOMEscan | – | 100 nM | lower = stronger binding | percent of control | 26%
Fc1ccc(Nc2nc(NC3CCCCC3)c3cc(Br)ccc3n2)cc1F | β2AR/β1AR TM7 chimera | β-arrestin2 recruitment, antagonist, BRET | – | – | relative to: isoprenaline maximal response | maximal inhibition | -4.4%
C[n+]1cc(NC(=O)c2ccc3ccc4ccc(C(=O)Nc5cc6ccccc6[n+](C)c5)nc4c3n2)cc2ccccc21 | hairpin duplex DNA | UV melting | – | 2 molar equivalents, DNA 3 µM | – | ΔTm | 0.6 °C
C=CC(=O)N1[C@H](c2ccc3c(c2)OCO3)c2[nH]c3ccccc3c2C[C@@H]1C(=O)N1CCN(C)CC1 | human cyclin E1 N112C-3xFLAG:CDK2 | co-IP with TMT proteomics, measured: PRPF19 | – | concentration not given, Q9UMS4 | relative to: wild type DMSO | relative co-enrichment | 122%
CC(=O)c1cnc(N)nc1N1CC[C@H]1c1nn2ccc(Cl)c2c(=O)n1-c1ccccc1 | PI3Kδ | KiNativ | dog white blood cell lysate | 1 µM | – | binding | > 90%
c1ccc(-c2n[nH]cc2-c2ccnc3ccccc23)nc1 | POM1 (Candida albicans) | kinase binding, MIB/MS competition | Candida albicans lysate | 10 µM | relative to: DMSO | log2 fold change | -1.01
Fc1ccc(Nc2nc(NC3CCCCC3)c3cc(C(F)(F)F)ccc3n2)cc1F | β2AR/β1AR TM7 chimera | β-arrestin2 recruitment, antagonist, BRET | – | – | relative to: isoprenaline maximal response | maximal inhibition | -1.2%
Nc1ncc(-c2cc(-c3cnn(CC(F)(F)F)c3)ncc2F)nc1C(=O)NC1CNCC(F)C1 (stereo not shown) | ACVR2B | KINOMEscan | – | 1 µM | relative to: DMSO control | remaining binding | 84%
Cc1cn(CC(=O)N(CC(=O)N[C@H]2CCC[C@@H]2N(CC(=O)N[C@H]2COC[C@@H]2N(CC(=O)N[C@H]2COC[C@@H]2N(CC(=O)N[C@H]2COC[C@@H]2N(CC(=O)NCCOCCOCC(N)=O)C(=O)Cn2cnc3c(N)ncnc32)C(=O)Cn2cc(C)c(=O)[nH]c2=O)C(=O)Cn2cnc3c(N)ncnc32)C(=O)Cn2cnc3c(=O)[nH]c(N)nc32)[C@H]2CCC[C@@H]2NC(=O)CN(C(=O)Cn2cnc3c(=O)[nH]c(N)nc32)[C@H]2CCC[C@@H]2NC(=O)CN(C(=O)Cn2cc(C)c(=O)[nH]c2=O)[C@H]2COC[C@@H]2NC(=O)CN(C(=O)Cn2cnc3c(N)ncnc32)[C@H]2COC[C@@H]2NC(=O)CN(C(=O)Cn2cnc3c(=O)[nH]c(N)nc32)[C@H]2COC[C@@H]2N)c(=O)[nH]c1=O | mismatched DNA TC | duplex formation, UV melting | – | – | relative to: complementary DNA | ΔTm | -27.4 °C

A few entries again:
SMILES | target | assay | system | setting | scale | quantity | result
C=CC(=O)N1[C@H](c2ccc3c(c2)OCO3)c2[nH]c3ccccc3c2C[C@@H]1C(=O)N1CCN(C)CC1 | human cyclin E1 N112C-3xFLAG:CDK2 | co-IP with TMT proteomics, measured: PRPF19 | – | concentration not given, Q9UMS4 | relative to: wild type DMSO | relative co-enrichment | 122%
c1ccc(-c2n[nH]cc2-c2ccnc3ccccc23)nc1 | POM1 (Candida albicans) | kinase binding, MIB/MS competition | Candida albicans lysate | 10 µM | relative to: DMSO | log2 fold change | -1.01
